Results gathered from unrelated publications.
Compare with care: the assays were run in different laboratories.

`COc1cc2cc(-c3ccc(CC(=O)Nc4cc(C(C)(C)C(F)(F)F)no4)cn3)cnc2cc1OC` — result for “objective response rate”: 23% (RECIST v1.1; RET-altered advanced solid tumour patients; oral, 75 mg once daily, phase I).
`Cc1cc(C)c(CNC(=O)c2cc(Cl)c3c(c2C)O[C@@](C)([C@H]2CC[C@H](N(C)C)CC2)O3)c(=O)[nH]1` — result for “objective response rate (CR or PR)”: 47% (relapsed/refractory B-NHL patients; dose not given, IWG 2007 criteria).
`C=CC(=O)Nc1cc(Nc2ncc(C(=O)OC(C)C)c(-c3cn(C)c4ccccc34)n2)c(OC)cc1N(C)CCN(C)C` — result for “objective response rate”: 28% (BICR, RECIST; EGFR-mutant NSCLC patients, prior platinum chemotherapy; oral, 160 mg once daily).
`COCCOc1cnc2ccn([C@H](C)c3nnc4c(F)cc(-c5cnn(C)c5)cn34)c(=O)c2c1` — result for “objective response rate”: 9.9% (advanced solid tumour patients; dose not given).
`COc1ccc([C@@H](O)c2cc(-c3ncnc4cc(N5CCOCC5)ccc34)c(F)cc2Cl)nn1` — result for “objective response rate”: 0% (RECIST version 1.1; patients, advanced solid tumours; 250 mg twice daily, with: avelumab; baseline: patients).
For `CCN(Cc1nc2c(N)nc3cc(-c4cc[nH]n4)ccc3c2[nH]1)C(C)=O`, “objective response rate” read 0% (RECIST v1.1; advanced solid tumour patients; dose not given, monotherapy arm).
`COc1c(OCCCN2CCOCC2)ccc2c1N=C(NC(=O)c1cnc(N)nc1)N1CCN=C21` — result for “objective response rate”: 74.8% (relapsed iNHL patients; dose not given).
For `CN[C@@H](C)C(=O)N[C@H]1CN(S(=O)(=O)c2cccc(S(=O)(=O)N3CC[C@H]4CC[C@@H](C(=O)NC(c5ccccc5)c5ccccc5)N4C(=O)[C@@H](NC(=O)[C@H](C)NC)C3)c2)CC[C@H]2CC[C@@H](C(=O)NC(c3ccccc3)c3ccccc3)N2C1=O`, “objective response rate” read 16.7% (RECIST 1.1; advanced pancreatic cancer patients; dose not given, prior therapy, with: AG).

A few entries again:
`Cc1cc(C)c(CNC(=O)c2cc(Cl)c3c(c2C)O[C@@](C)([C@H]2CC[C@H](N(C)C)CC2)O3)c(=O)[nH]1` — result for “objective response rate (CR or PR)”: 47% (relapsed/refractory B-NHL patients; dose not given, IWG 2007 criteria).
